Measurements from different studies.
Compare with care: the assays were run in different laboratories.
Target: Vascular endothelial growth factor receptor 3 (FLT4, Homo sapiens, UniProt P35916)
Chain of UniProt P35916 (whole entry, unmodified, looked up): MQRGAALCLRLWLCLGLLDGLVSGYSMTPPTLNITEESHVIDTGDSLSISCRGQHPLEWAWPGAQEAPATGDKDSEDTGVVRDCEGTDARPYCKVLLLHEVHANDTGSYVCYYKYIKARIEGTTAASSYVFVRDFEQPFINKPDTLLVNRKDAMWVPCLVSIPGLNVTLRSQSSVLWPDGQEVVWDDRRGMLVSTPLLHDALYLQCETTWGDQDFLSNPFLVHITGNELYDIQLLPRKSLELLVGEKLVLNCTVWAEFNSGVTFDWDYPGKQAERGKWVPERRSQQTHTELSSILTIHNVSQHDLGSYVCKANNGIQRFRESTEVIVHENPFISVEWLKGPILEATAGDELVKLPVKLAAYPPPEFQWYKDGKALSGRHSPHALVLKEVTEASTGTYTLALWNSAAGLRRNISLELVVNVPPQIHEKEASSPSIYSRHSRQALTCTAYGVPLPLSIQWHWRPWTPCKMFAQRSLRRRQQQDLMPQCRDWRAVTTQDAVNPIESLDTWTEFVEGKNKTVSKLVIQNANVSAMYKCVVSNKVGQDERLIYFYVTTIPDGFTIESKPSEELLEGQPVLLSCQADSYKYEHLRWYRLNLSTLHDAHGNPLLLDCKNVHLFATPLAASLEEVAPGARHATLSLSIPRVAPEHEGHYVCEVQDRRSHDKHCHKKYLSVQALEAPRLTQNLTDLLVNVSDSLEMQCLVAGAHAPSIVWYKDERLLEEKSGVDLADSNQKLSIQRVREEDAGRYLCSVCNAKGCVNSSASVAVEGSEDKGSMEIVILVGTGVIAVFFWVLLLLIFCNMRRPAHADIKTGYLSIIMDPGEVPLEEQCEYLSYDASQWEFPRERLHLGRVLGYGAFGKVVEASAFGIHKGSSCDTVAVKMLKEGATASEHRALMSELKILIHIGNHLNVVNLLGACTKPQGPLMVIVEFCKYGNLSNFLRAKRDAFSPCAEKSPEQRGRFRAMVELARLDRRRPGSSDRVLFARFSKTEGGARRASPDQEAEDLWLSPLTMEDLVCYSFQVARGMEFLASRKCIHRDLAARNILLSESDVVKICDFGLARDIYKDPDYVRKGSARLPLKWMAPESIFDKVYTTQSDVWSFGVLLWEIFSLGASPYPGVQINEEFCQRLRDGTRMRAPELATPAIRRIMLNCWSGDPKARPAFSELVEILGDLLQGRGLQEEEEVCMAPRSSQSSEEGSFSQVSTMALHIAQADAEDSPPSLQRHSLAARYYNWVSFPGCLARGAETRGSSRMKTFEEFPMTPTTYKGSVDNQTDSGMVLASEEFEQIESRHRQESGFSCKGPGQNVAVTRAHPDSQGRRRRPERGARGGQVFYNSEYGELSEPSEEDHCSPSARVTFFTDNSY

`CCN1CCN(Cc2ccc(C(=O)Nc3ccc(C)c(NCc4cnc5[nH]ccc5c4OC)c3)cc2C(F)(F)F)CC1` has a remaining binding of 11% (binding, competition with immobilised ligand; 1 µM).
`NC(=O)[C@@H](O)C[C@H]1CCc2sc3ncnc(O[C@H]4CC[C@H](N5CCOCC5)CC4)c3c21` gave an inhibition of 17% (enzyme activity, inhibitor; 10 µM).
The inhibition of `CCn1cc(C(=O)O)c(=O)c2c(N)c(F)c(NC3CCCCC3)cc21` is reported as 3.5% (kinase activity; 0.1 µM, with: ATP at Km).
`CNC(=O)C[C@H](Cc1ccc(C#N)cc1)NC(=O)c1cc(-c2ccc(CN[C@H](C)c3ccc(C)cc3)o2)ccc1Cl` — result for “activity vs control”: 106% (enzyme activity, inhibitor; 1 µM).
The remaining binding of `CNC1C[S+]2CC[S+]3CC[S+](C1)[Ru-4]321([N]=C=S)[n]2c3ccc(OC)cc3c3c4c(c5cc(F)c[n+]1c5c32)C(=O)NC4=O` (centres unmarked) is reported as 100% (KinomeScan; 0.1 µM; reference: untreated).
With `C=CC(=O)N1CCc2ccc(-n3c(=O)ccc4cnc5ccc(-c6cnn(C)c6)cc5c43)cc21` the remaining binding was 95% (KINOMEscan; 1 µM; reference: DMSO control).
The remaining activity of `COc1c(OCCCN2CCOCC2)ccc2c1N=C(NC(=O)c1cnc(N)nc1)N1CCN=C21` is reported as 102% (kinase activity, inhibitor; 1 µM; reference: untreated control).
The inhibition of `Cc1cccc(O[C@H]2CCC[C@@H](C(C)CNCc3ccncc3)C2)c1` (relative stereo) is reported as -3% (cell-free assay; 10 µM).
With `COc1cc(Nc2nc(C)cc(-c3cnn4nc(OC)ccc34)n2)cc(C(F)(F)F)c1` the remaining activity was 89% (inhibitor; 1 µM; reference: control).
Under “activity vs control”, `O=C(Cc1ccc(OCc2ccccc2)cc1)NC1(C(=O)O)CCN(C(=O)c2ccc(-c3cccc(Cl)c3)cc2)CC1` is recorded as 56% (enzyme activity, inhibitor; 10 µM).
For `Cc1ccc(-c2c(/C=C(\C#N)C(=O)NC(C)C)n(CCCO)c3ncnc(N)c23)cc1`, the remaining binding was 100% (cell-free assay, competition with immobilised ligand; 1 µM).
With `COc1ccc(NC(=O)Nc2ccc3c(c2)C(=O)N(C(C)CO)CC(C)C(CN(C)Cc2ccc4c(c2)OCO4)O3)cc1` (centres unmarked) the remaining activity was 101% (kinase activity, KinaseProfiler; 0.03 µM, species human; reference: control).
The inhibition of `CN1CCN(c2ccc(Nc3ncc(Cl)c(Nc4ccccc4P(C)(C)=O)n3)cc2Br)CC1` is reported as 48.6% (enzyme activity, inhibitor; 0.1 µM).
For `CN1CCN(Cc2ccc(-c3ccc(CO[C@H]4CCC[C@@H]4NC(=O)c4cc(-c5cnn(C)c5)cnc4N)cc3)cc2)CC1`, the inhibition was 4% (enzyme activity, inhibitor; 0.1 µM).
With `C=CC(=O)Nc1cccc(-c2cnc3[nH]cc(C(=O)NC(C)(C)C)c3n2)c1` the inhibition was 45% (enzyme activity, inhibitor; 0.1 µM).
`Nc1ncc(-c2cc(-c3cnn(CC(F)(F)F)c3)ncc2F)nc1C(=O)NC1CNCC(F)C1` (centres unmarked) gave a remaining activity of 107% (enzyme activity; 1 µM; reference: DMSO control).
`Cc1cnc2nc1Nc1cccc(c1)COC/C=C/COCc1cc(ccc1OCCN1CCOCC1)N2` has a remaining binding of 11% (binding; 0.1 µM).

Repeated from above:
With `COc1ccc(NC(=O)Nc2ccc3c(c2)C(=O)N(C(C)CO)CC(C)C(CN(C)Cc2ccc4c(c2)OCO4)O3)cc1` (centres unmarked) the remaining activity was 101% (kinase activity, KinaseProfiler; 0.03 µM, species human; reference: control).
The inhibition of `CN1CCN(c2ccc(Nc3ncc(Cl)c(Nc4ccccc4P(C)(C)=O)n3)cc2Br)CC1` is reported as 48.6% (enzyme activity, inhibitor; 0.1 µM).
